Experimental data gathered from unrelated publications.
Protocols differ between the studies behind these lines. Numbers after ± are the reported error.
ALB: Albumin (ALB, Homo sapiens, UniProt P02768)
SLC10A2: Ileal sodium/bile acid cotransporter (SLC10A2, Homo sapiens, UniProt Q12908)

Structure (SMILES) | target | assay | system | conditions | how to read | measurement | value
CCN(CC)C(=O)c1ccc(O)c(OC)c1 | Heat shock protein HSP 90-alpha, N-terminal domain (HSP90AA1, Homo sapiens, UniProt P07900) | binding, ligand-observed NMR titration | – | ligand to protein ratio 125 | – | contrast | 63%
CC(C)CC(NC(=O)C(NC(=O)NC(C(=O)O)C(C)C)C1CCNC(=N)N1)C(=O)NCCCNC(C(=O)O)C(OC1OC(CN)C(O)C1O)C1OC(n2ccc(=O)[nH]c2=O)C(O)C1O (stereo not shown) | mraY (Aquifex aeolicus, UniProt O66465, K70A) | ITC | – | K70A mutant | – | ΔH | -7.2 ± 0.2 kcal/mol
COc1ccc(C(=O)c2c(C(=O)NCCCN(C)C)oc3ccc(Cl)cc3c2=O)cc1OC | GHSR (Homo sapiens, UniProt Q92847) | agonist | Gαq/11 knockout HEK293 cells | 10 µM | baseline: wild-type cells | calcium mobilization | inhibited
Nc1nc2c(ncn2C2CC(O)C(COP(=O)(O)OCCCNC(=O)c3cccc(-c4cccc(Br)c4)c3)O2)c(=O)[nH]1 (stereo not shown) | SAMHD1 (Homo sapiens, UniProt Q9Y3Z3, D137N) | inhibitor, malachite green | – | with: XTP activator | baseline: D137N mutant over wild type | IC50 fold increase | 30 fold
CCCCCC(C)NCC(=O)O (stereo not shown) | ALB | binding, UV-vis absorption titration | – | concentration not given | – | hypochromicity | 33.9%
C[C@H](N)C(=O)N[C@@H](CCCNC(=N)N)C(=O)N[C@H](C(=O)N[C@@H](CSCC[N+](C)(C)C)C(=O)N[C@@H](CCC(N)=O)C(=O)N[C@H](C(=O)N[C@@H](C)C(=O)N[C@@H](CCCNC(=N)N)C(=O)N[C@@H](CCCCN)C(=O)N[C@@H](CO)C(=O)N[C@H](C(=O)NCC(=O)NCC(=O)N[C@@H](CCCCN)C(=O)N[C@@H](C)C(=O)N[C@@H](CCCCNC(=O)c1ccc2c(c1)C(=O)OC21c2ccc(O)cc2Oc2cc(O)ccc21)C(N)=O)[C@@H](C)O)[C@@H](C)O)[C@@H](C)O | Inhibitor of growth protein 1, PHD finger (ING1, Homo sapiens, UniProt Q9UK53) | fluorescence polarisation | – | 25 °C, with: H3K4me3 methyl-lysine analogue peptide | – | binding free energy | -6.74 ± 0.12 kcal/mol
O=P(O)(O)O[C@@H]1[C@@H](O)[C@H](O)[C@H](O)[C@H](O)[C@H]1OP(=O)(O)O | Itpr1 (Rattus norvegicus, UniProt P29994, del318-332/R568Q) | Ca2+ release, agonist | permeabilized DT40 cells | – | – | Hill coefficient | 1.1 ± 0.2
CC(Cc1ccc(Cl)cc1)=C(c1ccc(Cl)cc1)c1ccc(OCCN(C)C)cc1 | Estrogen receptor (ESR1, Homo sapiens, UniProt P03372) | reporter gene, agonist, yeast estrogen screen | – | 1 µM | baseline: DMSO | fold activation | 1.09 ± 0.05 fold
CC(C)[C@H](NC(=O)[C@@H]1CCCN1C(=O)[C@H](CCCCN)NC(=O)[C@H](Cc1ccccc1)NC(=O)[C@H](Cc1ccccc1)NC(=O)[C@H](CC(=O)O)NC(=O)[C@H](CCC(=O)O)NC(=O)[C@H](Cc1ccc(O)cc1)NC(=O)[C@H](CC(=O)O)NC(=O)[C@H](CCC(=O)O)NC(=O)[C@H](CC(=O)O)NC(=O)[C@H](CCC(=O)O)NC(=O)[C@@H](N)Cc1ccc(O)cc1)C(=O)N[C@H](C(=O)N[C@@H](CSSC[C@H](NC(=O)[C@@H](NC(=O)[C@@H](NC(=O)[C@@H]1CCCN1C(=O)[C@H](CCCCN)NC(=O)[C@H](Cc1ccccc1)NC(=O)[C@H](Cc1ccccc1)NC(=O)[C@H](CC(=O)O)NC(=O)[C@H](CCC(=O)O)NC(=O)[C@H](Cc1ccc(O)cc1)NC(=O)[C@H](CC(=O)O)NC(=O)[C@H](CCC(=O)O)NC(=O)[C@H](CC(=O)O)NC(=O)[C@H](CCC(=O)O)NC(=O)[C@@H](N)Cc1ccc(O)cc1)C(C)C)[C@@H](C)O)C(=O)N[C@@H](Cc1ccc(O)cc1)C(=O)N[C@@H](Cc1ccccc1)C(N)=O)C(=O)N[C@@H](Cc1ccc(O)cc1)C(=O)N[C@@H](Cc1ccccc1)C(N)=O)[C@@H](C)O | C-C motif chemokine 8 (CCL8, Homo sapiens, UniProt P80075) | isothermal titration calorimetry | – | concentration not given | – | binding entropy ΔS | 33.3 J/mol/K
CCCCCCOc1ccc(C(=O)OCC[N+]2(C)CC=CCC2)cc1 (stereo not shown) | CHRM5 (Homo sapiens, UniProt P08912) | recovery of [3H]NMS binding after washing | membranes | 100 µM | – | dissociation half-time | 5.1 ± 0.4 h
C[C@H](CCC(=O)N[C@@H](CCC(=O)Nc1ccc(F)nc1)C(=O)O)[C@H]1CC[C@H]2[C@@H]3[C@H](O)C[C@@H]4C[C@H](O)CC[C@]4(C)[C@H]3CC[C@]12C | SLC10A2 | transport, substrate, LC-MS/MS | ASBT-MDCK cells | – | – | Kt | 11.7 µM
CC(=O)N1CCC=C(c2cc3c(Nc4cc5ncsc5cc4F)ncnc3s2)C1 | RIPK1 (Homo sapiens, UniProt Q13546) | enzyme activity | – | 1 µM | baseline: untreated | remaining activity | 103%
OC[C@H]1O[C@@H](n2cnc3c(Nc4cccc(Br)c4)ncnc32)[C@H](O)[C@@H]1O | ADORA3 (Homo sapiens, UniProt P0DMS8) | kinetic radioligand binding | – | 10 °C, no GTP, with: [3H]PSB-11 | – | koff | 0.0011 ± 4e-05 s⁻¹
CN(C)CCCOc1ccc2cc(CN)ccc2c1 | Primary amine oxidase, liver isozyme (Bos taurus, UniProt Q29437) | substrate, fluorescence | – | pH 7.2, 30 °C | – | Km | 0.163 ± 0.012 µM
O=C(Nc1ccc(-c2nc(-c3ccccc3)cs2)cc1)C1CCN(Cc2cccnc2)CC1 | Ephx2 (Mus musculus, UniProt P34914) | inhibitor, fluorescent substrate | – | concentration not given | – | activity | inactive
Cc1ccc(NC(=O)CCC(NC(=O)CCC(C)C2CCC3C4C(O)CC5CC(O)CCC5(C)C4CCC23C)C(=O)O)c(C)n1 (stereo not shown) | SLC10A2 | transport, substrate, LC-MS/MS | ASBT-MDCK cells | – | – | Kt | 92.2 µM

Structure (SMILES) | target | assay | system | conditions | how to read | measurement | value
CNc1ccccc1C(=O)O[C@H]1C[C@H](n2cnc3c(N)ncnc32)O[C@@H]1COP(=O)(O)OP(=O)(O)O | Unconventional myosin-Va (Gallus gallus, UniProt Q02440, D297C/G292C/I296C/S293C/V295G) | stopped-flow FRET | – | – | baseline: 2 mM MgCl2, higher without Mg | fast phase y-intercept | ~10 fold
N=C(N)NCCC[C@H](NC(=O)[C@H](Cc1ccccc1)NC(=O)[C@@H](N)CO)C(=O)N[C@@H](CC(N)=O)C(N)=O | Neuropeptide S receptor (Mus musculus, UniProt Q8BZP8) | calcium vs cAMP signalling, agonist | HEK-293T cells | – | higher = calcium bias | bias factor | 14.6
CC1=C(/C=C/C(C)=C\C=C\C(C)=C\C=O)C(C)(C)CCC1 | Rhodopsin (RHO, Homo sapiens, UniProt P08100, T289P) | pharmacological chaperone, immunostaining, nonpermeabilized cells | 661W | 2.5 µM, 16 h | baseline: untreated cells | cell surface expression | ~6 fold
CC(=O)N[C@@H](CCCNC(=N)N)C(=O)N[C@H](Cc1ccc(O)cc1)C(=O)N[C@@H](CCCNC(=N)NC(=O)NCCCCN)C(=O)N[C@@H](CC(C)C)C(=O)N[C@@H](CCCNC(=N)N)C(=O)N[C@@H](Cc1ccc(O)cc1)C(N)=O | NPY4R (Homo sapiens, UniProt P50391) | β-arrestin-2 recruitment, agonist | HEK293T | concentration not given, unit not given | baseline: 1 µM human pancreatic polypeptide | intrinsic activity | 0.49
CC(=O)N[C@H]1[C@@H](OP(=O)(O)OP(=O)(O)OC[C@H]2O[C@@H](n3ccc(=O)[nH]c3=O)[C@H](O)[C@@H]2O)O[C@H](CO)[C@H](O)[C@@H]1O | ABO (Homo sapiens, UniProt P16442, G235S/G268A/L266M/R176G) | binding, NMR | – | – | – | koff | 493 s⁻¹
CCC(=C(c1ccc(O)cc1)c1ccc(OCCN(C)CCOCCOCCOCCOCCN(C)CCOc2ccc(C(=C(CC)c3ccccc3)c3ccc(O)cc3)cc2)cc1)c1ccccc1 (mixture of isomers) | ESR2 (Homo sapiens, UniProt Q92731) | radioligand competition binding | – | concentration not given, Z-E/E isomer form, with: [3H]estradiol tracer | baseline: estradiol | relative binding affinity | 4.77 ± 1.5%
CCCn1c(=O)c2[nH]c(-c3ccc(OCC(=O)NCCNC(=O)CCCCCCCNS(=O)(=O)c4cccc5c(N(C)C)cccc45)cc3)nc2n(CCC)c1=O | ADORA1 (Homo sapiens, UniProt P30542) | radioligand binding, whole-cell binding | CHO-A1 | 2 h, with: [3H]DPCPX | baseline: specific binding, 10 µM XAC | maximal inhibition | 91 ± 0.5%
[3H]C([3H])([3H])c1cnccc1CN1C[C@@H](c2cc(F)c(F)c(F)c2)CC1=O | SV2A (Homo sapiens, UniProt Q7L0J3) | radioligand binding, autoradiography | human, post-mortem temporal lobe | 5 nM | – | total binding | 424 fmol/mg
CC(=O)N1Cc2c(-c3ccc(C(=O)N4CCCc5ccccc54)cc3)cnn2C[C@H]1Cc1ccccc1 | PRKN/UBB (Homo sapiens, UniProt O60260+P0CG47) | not specified | – | concentration not given | – | activity | inactive
CC(C)(O)[C@@H]1CC[C@](C)([C@H]2[C@@H](O)C[C@@]3(C)[C@@H]4C[C@H](O)[C@H]5C(C)(C)[C@@H](O)CC[C@@]56C[C@@]46CC[C@]23C)O1 | Glycosyltransferase GT1 (Astragalus membranaceus, UniProt A0A977WMR2, G146V) | substrate | – | 3-OH glucosylation, with: UDP-glucose | – | kcat/Km | not detected
O=C1Nc2cccnc2N(C2CC2)c2ncccc21 | ALB | ITC | – | concentration not given, 298 K | – | binding enthalpy | -1 kcal/mol
N=C(N)NCCC[C@H](NC(=O)[C@H](CC(=O)O)NC(=O)[C@@H]1CSCC(=O)NCC(=O)N[C@@H](Cc2c[nH]cn2)C(=O)N[C@H](Cc2ccccc2)C(=O)N[C@@H](CCCNC(=N)N)C(=O)N[C@@H](Cc2c[nH]c3ccccc23)C(=O)N1)C(=O)N[C@@H](Cc1ccccc1)C(=O)NCC(N)=O | MC3R (Homo sapiens, UniProt P41968) | cAMP accumulation, agonist | HEK293 expressing MC3R | 10 µM | baseline: MT-II | activation | 140%
CSCC[C@H](NC(=O)[C@H](CC(C)C)NC(=O)[C@H](CCC(N)=O)NC(=O)[C@H](Cc1c[nH]c2ccccc12)NC(=O)[C@H](CC(C)C)NC(=O)[C@H](CCCNC(=N)N)NC(=O)[C@H](Cc1c[nH]cn1)NC(=O)[C@H](CO)NC(=O)[C@H](CC(C)C)NC(=O)[C@H](CC(N)=O)NC(=O)[C@H](CCC(N)=O)NC(=O)[C@@H](NC(=O)[C@H](CCC(N)=O)NC(=O)[C@@H]1CSSC[C@H](NC(=O)CNC(=O)[C@@H](NC(=O)[C@H](CCCNC(=N)N)NC(=O)[C@H](CC(C)C)NC(=O)[C@H](CC(C)C)NC(=O)[C@H](CCC(N)=O)NC(=O)[C@H](C)NC(=O)[C@H](CCC(N)=O)NC(=O)[C@@H](N)[C@@H](C)O)C(C)C)C(=O)N[C@@H](C(C)C)C(=O)N[C@@H](CC(C)C)C(=O)NCC(=O)N[C@@H]([C@@H](C)O)C(=O)N1)C(C)C)C(=O)NCC(=O)N1CCC[C@H]1C(=O)N[C@@H](C)C(=O)NCC(=O)N[C@@H](CCCNC(=N)N)C(=O)N[C@@H](CCC(N)=O)C(=O)N[C@@H](CC(=O)O)C(=O)N[C@@H](CO)C(=O)N[C@@H](C)C(=O)N1CCC[C@H]1C(=O)N[C@H](C(=O)N[C@@H](CC(=O)O)C(=O)N1CCC[C@H]1C(=O)N[C@@H](CO)C(=O)N[C@@H](CO)C(=O)N1CCC[C@H]1C(=O)N[C@@H](Cc1c[nH]cn1)C(=O)N[C@@H](CO)C(=O)N[C@@H](Cc1ccc(O)cc1)C(N)=O)C(C)C | Calcitonin-gene-related peptide receptor, CALCRL/RAMP1 (Homo sapiens, UniProt O60894+Q16602, Q45A) | cAMP production, agonist | cells expressing CLR Q45A mutant | with: hAM | baseline: wild-type receptor | Emax | 34.7 ± 9.56%
O=C(c1cc2c(s1)CCCCC2)N1CCC(n2c(=O)[nH]c3ccccc32)CC1 | Trpc6 (Mus musculus, UniProt Q61143) | ion current, agonist, whole-cell patch clamp | – | wild type | baseline: 3 µM over 1 µM | current ratio | 1.87 ± 0.22
CC[C@H](C)[C@@H]1NC(=O)[C@H](Cc2cn(CCc3c(C)[nH]c4cc(Cl)cc(Cl)c34)nn2)NC(=O)[C@@H](CC(N)=O)NC(=O)[C@H](CCCNC(=N)N)NC(=O)[C@H](Cc2ccccc2)NC(=O)[C@@H](CC(C)C)NC(=O)[C@H](C)NC(=O)c2cc3cc(c2)C(=O)NC[C@@H](C(=O)N[C@@H](CCCCN)C(N)=O)NC(=O)[C@H](CCCNC(=N)N)NC(=O)[C@H](CCCNC(=N)N)NC(=O)[C@H](CCCNC(=N)N)NC(=O)[C@H](CCCNC(=N)N)NC(=O)[C@H](Cc2ccc4ccccc4c2)NC(=O)[C@H](Cc2ccccc2)NC(=O)[C@H](CCCCNC3=O)NC(=O)[C@H](CC(=O)O)NC1=O | IKBKG (Homo sapiens, UniProt Q9Y6K9) | fluorescence anisotropy | – | concentration not given, with: FITC-labelled peptide 100 nM | – | binding | no binding
